# Results from different studies.
# Compare with care: the assays were run in different laboratories. Values joined by “and” are separate records of one study, mostly repeats; a detail may differ. ± gives the spread as reported.
Compound,cell line,assay,conditions,how to read,endpoint,value
CO[C@H]1C[C@@H]2CC[C@@H](C)[C@@](O)(O2)C(=O)C(=O)N2CCCC[C@H]2C(=O)O[C@H]([C@H](C)C[C@@H]2CC[C@@H](OC(=O)C(C)(CO)CO)[C@H](OC)C2)CC(=O)[C@H](C)/C=C(\C)[C@@H](O)[C@@H](OC)C(=O)[C@H](C)C[C@H](C)/C=C/C=C/C=C/1C,HD-MB03,cell growth,"168 h, DMSO",,IC50,280 nM
CCC(=O)O[C@]1(C(=O)SCF)[C@H](C)C[C@H]2[C@@H]3C[C@H](F)C4=CC(=O)C=C[C@]4(C)[C@@]3(F)[C@@H](O)C[C@@]21C,primary rat hippocampal/cortical neuron-glia cultures,,"1 µM, with: 1 µM α-synuclein oligomers",,reversal of trafficking deficit,-20.6%
CCn1cc(-c2cc(Cn3ccnc3)cc3c2CCN([C@H](c2cc(OC)ccn2)C2CC2)C3=O)c(C(F)(F)F)n1,DMS-273,"cell growth, inhibitor",120 h,,EC50,> 30000 nM
Cc1nn(-c2nc3c(F)cc(F)cc3s2)c(O)c1C(c1ccc(C(F)(F)F)cc1)c1c(C)nn(-c2nc3c(F)cc(F)cc3s2)c1O,THP1-Dual,western blot,"20 µM, dose series, with: HT-DNA",baseline: DMSO,phospho-TBK1 to TBK1 ratio,0.54 and 0.645 and 0.619
Cn1cnc2c(F)c(Nc3ccc(Br)cc3Cl)c(C(=O)NOCCO)cc21,HD-MB03,cell growth,"168 h, DMSO",,IC50,3620 nM
CCCCc1oc2ccc(NS(C)(=O)=O)cc2c1C(=O)c1ccc(OCCCN(CCCC)CCCC)cc1,human embryonic stem cell aggregates,"mRNA level, microarray, measured: PRMT8","0.5 µM, 120 h","baseline: untreated, up-regulated",fold change,2.3 fold
CO[C@H]1C(=O)[C@]2(C)[C@@H](OC)C[C@H]3OC[C@@]3(OC(C)=O)[C@H]2[C@H](OC(=O)c2ccccc2)[C@]2(O)C[C@H](OC(=O)[C@H](O)[C@@H](NC(=O)OC(C)(C)C)c3ccccc3)C(C)=C1C2(C)C,HD-MB03,cell growth,"168 h, DMSO",,IC50,6.61 nM
CC[C@]1(O)C[C@@H]2CN(CCc3c([nH]c4ccccc34)[C@@](C(=O)OC)(c3cc4c(cc3OC)N(C)[C@H]3[C@@](O)(C(=O)OC)[C@H](OC(C)=O)[C@]5(CC)C=CCN6CC[C@]43[C@@H]65)C2)C1,KB-C2 (P-gp overexpressing),cell growth,,baseline: IC50 in KB-C2 over KB-3-1,fold resistance,13.6
O=C(/C=C/C=C/C=C/C1CCCCC1)NC1=C[C@@](O)(/C=C/C=C/C=C/C(=O)NC2=C(O)CCC2=O)[C@@H]2O[C@@H]2C1=O,SUIT-2,"cell growth, CellTiter-Glo",78 h,,GI50,21400 nM
Cn1cc(Nc2nccc(-c3ccc4c(c3)CN(C3COC3)CC[C@H]4NC(=O)c3cn(C(C)(C)C)nn3)n2)cn1,mouse splenic B cells,measured: IL-6 signalling,"30 mg/kg, IgD-activated in vivo","baseline: vehicle, direction not given",pathway activation z-score,0.943
CCn1cc(-c2cc(Cn3ccoc3=N)cc3c2CCN([C@@H](C)c2cc(OC)ccn2)C3=O)c(C(F)(F)F)n1,HCT-8,"cell growth, inhibitor",120 h,,EC50,> 30000 nM
Cc1ccc(S(=O)(=O)NNC(=O)COC(=O)c2ccccc2Nc2cccc(C(F)(F)F)c2)cc1,RAW264.7,Western blot,"concentration not given, 72 h, unit not given, with: LPS",baseline: control,mTOR protein level,0.329
Cc1cc(C)n(C(=S)[S][Au][PH](CCCCCC[PH]([Au][S]C(=S)n2nc(C)cc2C)(c2ccccc2)c2ccccc2)(c2ccccc2)c2ccccc2)n1,786-O,"cell growth, NCI-60 screen",renal cancer,,log TGI,> -4 log10 M
Cc1cccc(-c2[nH]c(CNc3ccccc3F)nc2-c2ccc3ncnn3c2)n1,RPMI-8226,"flow cytometry, measured: CD314",concentration not given,baseline: comparator compound alone,surface marker level,157%
CN(C)C(=O)c1cc2cnc(Nc3ccc(N4CCNCC4)cn3)nc2n1C1CCCC1,HD-MB03,cell growth,168 h,,IC50,2850 nM
Nc1cccc2c1C(=O)N(C1CCC(=O)NC1=O)C2=O (stereo not shown),RPMI-8226,"flow cytometry, measured: CD104",concentration not given,baseline: comparator compound alone,surface marker level,279%
Cn1c(Nc2nc3ccc(C(F)(F)F)cc3s2)nc2cc(C(=O)NCCOCCO)ccc21,SH-SY5Y,"RNA-seq, measured: FLNC mRNA","5 µM, 5 h",baseline: untreated cells,fold change,1.93
Cc1cc(C)nc(SCC(=O)Nc2ncc(Cc3cccc(OCc4cn(Cc5ccccc5C)nn4)c3)s2)n1,HGC-27,"cell viability, MTS",10 µM,,inhibition,40.6 ± 4.5%
C=CCn1c(=O)c2cnc(Nc3ccc(N4CCN(C)CC4)cc3)nc2n1-c1ccc2c(n1)[C@@](O)(CC)CC2,NCI-H1048,flow cytometry,concentration not given,,G2/M phase mitotic cells,14%
Cc1ccc(C(=O)c2cc(O)c(O)c([N+](=O)[O-])c2)cc1,HD-MB03,cell growth,"168 h, single agent",,IC50,745 nM
Cn1cc(-c2ccc(-c3cncc(Cl)c3N3CCC4(CCNC4=O)CC3)cc2)cn1,COLO 205,"gene expression, microarray, measured: ITPR1 mRNA","concentration not given, 2 h",baseline: untreated cells,log2 fold change,2.43
CC1(C)CCC(CN2CCN(c3ccc(C(=O)NS(=O)(=O)c4ccc(NCC5CCOCC5)c([N+](=O)[O-])c4)c(Oc4cnc5[nH]ccc5c4)c3)CC2)=C(c2ccc(Cl)cc2)C1,THP-1,"annexin V/PI flow cytometry, measured: annexin V-/PI-","1.6 µM, 24 h",,viable cells,94.9%
CCCc1nc(C)c2c(O)nc(-c3cc(S(=O)(=O)N4CCN(CC)CC4)ccc3OCC)nn12,primary rat hippocampal/cortical neuron-glia cultures,,"1 µM, with: 1 µM α-synuclein oligomers",,reversal of trafficking deficit,-9.52%
O=C(O)c1ccc2c(c1)nc(Nc1cccc(Cl)c1)c1ccncc12,HD-MB03,,"concentration not given, with: ribociclib NG",baseline: ribociclib over DMSO,fold change in IC50,0.709
C=Cc1c2[n-]c(c1C)/C=c1\[n-]/c(c(C)c1C=C)=C\c1[n-]c(c(CCC(=O)O)c1C)/C=c1\[n-]c(c(C)c1CCC(=O)O)=C2.[Sn+4],SH-SY5Y,"RNA-seq, measured: GREM1 mRNA","5 µM, 5 h",baseline: untreated cells,fold change,2.42
Cc1cc(Nc2ncc(Cl)c(Nc3ccccc3S(=O)(=O)C(C)C)n2)c(OC(C)C)cc1C1CCNCC1,CLB-GE,"phosphoproteomics LC-MS/MS, measured: HELZ phosphorylation","200 nM, 60 min",baseline: untreated,log2 fold change,-1.59
CC/C(=N\NC(=O)NCc1cccc(O)c1)c1ccc(O)c(C)c1O,SK-OV-3,Western blot,"10 µM, 3 h, 3D gellan gum culture, unit not given",baseline: DMSO,LATS band intensity,0.43 ± 0.22
CC(C)C[C@H](NC(=O)N1CCCCCC1)C(=O)N[C@H](Cc1cn(C)c2ccccc12)C(=O)N[C@H](Cc1ccc(O)cc1)C(=O)O,NIH/3T3 cells,"binding, antagonist, radioligand binding",,,Kd,0.114 nM
Nc1cccc2c1C(=O)N([C@@H]1CCCNC1)C2=O,RAW 264.7,measured: IL-6,"30 µM, with: LPS",,inhibition,40%
CC(C)n1nc(-c2ccc3oc(N)nc3c2)c2c(N)ncnc21,HD-MB03,cell growth,"168 h, DMSO",,IC50,49.8 nM
Cc1cc(=O)[nH]n1-c1nc(-c2ccc(Cl)cc2)c2c(NC(=O)c3ccccc3)nnc-2[nH]1,A549/ATCC,NCI60 SRB,10 µM,,growth percent,103%
CC(C)NCC(O)c1ccc(O)c(O)c1 (stereo not shown),mouse ventricular cardiomyocytes,,"dose not given, 0.155 s",,sarcomere length,1.59 µm
CCCN1CCN(c2ccc3[nH]c(-c4ccc5[nH]c(-c6ccc(C(F)(F)F)cc6)nc5c4)nc3c2)CC1,SN12C,SRB,"10 µM, 48 h",,growth percent,-69.2%
CON(C)C(=O)N1N=C(c2cc(F)ccc2F)S[C@@]1(CCCN)c1ccccc1,HD-MB03,cell growth,"168 h, single agent",,IC50,3.83 nM
CC(C)(c1ccc(O)cc1)c1ccc(O)cc1,HepG2 spheroids,Hoechst flow cytometry,"1 µM, 24 h",,S phase cells,7.93 ± 1.55%
CC(=O)O[C@H]1C(=O)[C@@]2(C)[C@H]([C@H](OC(=O)c3ccccc3)[C@]3(O)C[C@H](OC(=O)[C@H](O)[C@@H](NC(=O)c4ccccc4)c4ccccc4)C(C)=C1C3(C)C)[C@]1(OC(C)=O)CO[C@@H]1C[C@@H]2O,"CHP-212 resistant sublines, USP7 V517F heterozygous",,0.01372 µM,,viability,85.7%
Cc1ccc(CNC(=O)Cn2cc(CSc3nc4ccccc4[nH]3)nn2)cc1,MDA-MB-231,MTT,3.91 ppm,,viability,51.1%
O=C(O)/C=C/c1ccc(O)c(O)c1,H9c2,"western blot, measured: HO-1 and NQO1",concentration not given,,protein level,increased
O=C(C=Cc1cc(C(=O)c2ccc(OC3CCCC3)cc2O)ccc1OCc1ccc2c(O)noc2c1)NCCOCCOCCOCCOCCOCCOCCOCCNc1cccc2c1C(=O)N(C1CCC(=O)NC1=O)C2=O (stereo not shown),UMSCC1 cells,"RT-qPCR, measured: FOSL1 target genes SNAI2, BMI1","concentration not given, 16 h",,mRNA level,inhibited
COc1cnc2cccc(N3CCc4c(cc(Cn5ccnc5C)cc4-c4cn(C)nc4C(F)(F)F)C3=O)c2c1,Calu-6,"cell growth, inhibitor",120 h,,EC50,3680 nM
CC1(C)COc2ccc(F)cc2CN2c3nc4c(cnn4cc3OC[C@H]2C(F)F)C(=O)N1,NCI-H3122 (EML4-ALK variant 1),cell viability,,,Emax,82.9%
Cc1cnc(NC2CCOCC2)nc1-n1cnc(C(=O)NC(CN)c2cc(F)cc(Cl)c2)c1 (stereo not shown),A-375,flow cytometry,"1 µM, 24 h",,G1 phase cells,93.4%
Nc1ncnc2c1ncn2[C@@H]1O[C@H](CO)[C@@H](O)[C@H]1O,activated human T cells,,1 µM,higher = more TNF,TNF production,3560 a.u. and 3810 a.u. and 3710 a.u.
O=C(c1ccc2[nH]ccc2c1)N1CCN(S(=O)(=O)c2ccc3[nH]c(=O)oc3c2)CC1,HL-60,"NUDT15 inhibitor, mass spectrometry","10 µM, 16 h, with: 6-thioguanine 0 µM",higher = more incorporation,6-thio-dGTP in DNA,7.43 a.u.
COC(=O)C1CCN(C(=O)c2ccc(N(CCO)Cc3cnc4nc(N)nc(N)c4n3)cc2)CC1,786-O,"high-content imaging, measured: MitoTracker Red uptake",10 µM,,mitochondrial toxicity,-0.37 ± 4.59%
Cn1cnc2c(F)c(Nc3ccc(Br)cc3F)c(C(=O)NOCCO)cc21,A-375,,"0.03906 µM, 72 h",,viability,107%

# Repeated from above:
Compound,cell line,assay,conditions,how to read,endpoint,value
Cc1cc(C)n(C(=S)[S][Au][PH](CCCCCC[PH]([Au][S]C(=S)n2nc(C)cc2C)(c2ccccc2)c2ccccc2)(c2ccccc2)c2ccccc2)n1,786-O,"cell growth, NCI-60 screen",renal cancer,,log TGI,> -4 log10 M
O=C(O)/C=C/c1ccc(O)c(O)c1,H9c2,"western blot, measured: HO-1 and NQO1",concentration not given,,protein level,increased
